# Results gathered from unrelated publications.
# Every numbered part comes from another study and shows a few of its results, in no order. Substitutions count along the parent as printed.

# Sample 1 — technique: protein binding microarray; molecule type: double-stranded DNA, one strand shown; medium: in vitro; concentration: not given; relative to: not given; reading: higher = stronger binding
# Target: Histone acetyltransferase KAT6A, both winged helices, GST fusion (KAT6A, Homo sapiens, UniProt Q92794, residues 1-181)
# Setting: 8-mer, flanks averaged, mean of 2 arrays, mostly near background
# Target sequence (chain): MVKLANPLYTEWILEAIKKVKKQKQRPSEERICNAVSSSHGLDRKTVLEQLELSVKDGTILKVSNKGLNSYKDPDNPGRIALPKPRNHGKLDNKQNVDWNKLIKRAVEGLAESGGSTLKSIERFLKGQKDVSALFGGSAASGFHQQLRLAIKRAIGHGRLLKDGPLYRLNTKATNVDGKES
Sequence,E-score
CCCTAACG,0.0493
CACAACAG,-0.0644
GTTGCGAA,-0.069
CCAACAGG,-0.155
GCTGGGCA,-0.121
TTGCGAAA,0.0365
GGGTTCCA,-0.00886
GCTCTATA,0.00754
AGCGGCCG,0.39
AGGGGGGC,-0.214
AGTCATAA,-0.117
ACATGGTG,-0.0184
CACTTAGA,-0.0851
GTTGAGCA,-0.0635
GAGGGCGC,0.167
ACCCTACG,-0.023
ATTCCTGG,-0.027
ACCGCGAT,0.297
CTGTCCTC,-0.115
CTTCGACA,-0.0811
CCTAAGGC,-0.0894
AAGAAGTG,-0.149
ACACTGAA,-0.124
TAAGTACA,-0.171

# Sample 2 — technique: RNA Bind-n-Seq; molecule type: RNA; medium: in vitro; concentration: 90 pmol; setting: 4-mer, random 30-nt RNA, single round; together with: 3 µM DMDA-PatA, 2 mM ADP, 2 mM phosphate; relative to: input library; reading: higher = stronger binding
# Target: Eukaryotic initiation factor 4A-I (EIF4A1, Homo sapiens, UniProt P60842, residues 1-406, full length assumed)
# Chain of UniProt P60842 (whole entry, looked up): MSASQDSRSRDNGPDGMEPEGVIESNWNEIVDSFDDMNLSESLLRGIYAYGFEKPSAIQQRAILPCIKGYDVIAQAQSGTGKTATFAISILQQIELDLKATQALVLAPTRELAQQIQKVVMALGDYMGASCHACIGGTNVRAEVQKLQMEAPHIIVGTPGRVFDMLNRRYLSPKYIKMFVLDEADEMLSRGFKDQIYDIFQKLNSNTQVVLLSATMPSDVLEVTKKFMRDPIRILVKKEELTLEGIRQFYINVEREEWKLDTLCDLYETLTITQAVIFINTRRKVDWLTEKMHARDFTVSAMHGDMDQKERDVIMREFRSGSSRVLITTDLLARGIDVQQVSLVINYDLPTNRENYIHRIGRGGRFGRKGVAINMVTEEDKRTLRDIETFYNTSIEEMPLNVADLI
Sequence,4-mer enrichment [fold]
UCCA,0.661
UUGA,1.01
CGUA,1.02
CGGU,0.925
GACG,0.762
AGGG,1.25
CGAA,1.12
UGCU,0.604
UGAC,0.718
GCGC,1.39
GUGG,1.63
GAAG,1.23
GUCG,0.714
AUUA,0.982
GCAU,0.825
UUGU,1.15
UCCG,0.604
UCUU,0.691
UAUG,1.12
GCAG,0.895
UCUA,0.668

# Sample 3 — target: CCNB3, cyclin fold, Cln2 fusion (human); technique: yeast growth competition, sequencing; medium: yeast; setting: weak parent motif; relative to: not given; reading: higher = stronger binding
# Parent: RBL1 docking peptide (human); GSAKRRLFGEDPP; partner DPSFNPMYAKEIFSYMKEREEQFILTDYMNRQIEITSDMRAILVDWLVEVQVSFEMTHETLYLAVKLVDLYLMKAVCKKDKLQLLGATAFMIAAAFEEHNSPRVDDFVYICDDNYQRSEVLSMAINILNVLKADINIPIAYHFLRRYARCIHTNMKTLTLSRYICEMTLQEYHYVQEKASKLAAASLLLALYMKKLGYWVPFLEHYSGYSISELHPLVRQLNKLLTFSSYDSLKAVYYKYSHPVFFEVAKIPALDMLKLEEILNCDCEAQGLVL
Change,normalised enrichment score
G1Y,1.51
P13D,1
R6L,0.231
R5F,0.617
F8S,0.0115
E10F,0.595
F8N,-0.105
K4P,0.239
P12H,0.56
R6P,-0.105
P12G,0.418
K4R,1.65
P12T,1.03
E10Y,0.251
L7W,0.488
F8C,0.28
A3G,-0.0161
R6K,1.11
G1T,1.06
P13F,0.364
G9T,0.931
S2M,0.616
R5S,0.551
R5H,0.306
L7F,-0.0172

# Sample 4 — technique: universal PBM; molecule type: double-stranded DNA, one strand shown; medium: in vitro; concentration: not given; reading: higher = stronger binding
# Target: Sal-like protein 4, full length isoform B (SALL4, Homo sapiens, UniProt Q9UJQ4-2, residues 1-616)
# Setting: 8-mer, flanks averaged, mean of replicates
Sequence,E-score
GAATTCGC,-0.204
CACCGAGC,-0.213
CCGAATAA,0.129
CCTAACCC,-0.255
AAGACTAA,0.0568
GGAGACTA,-0.0605
TAACTCGA,0.137
TTGAGCAA,0.0417
CATGGAGG,-0.025
AACCAGCC,-0.0962
ACGTAATG,0.177
AAAATCAC,0.123
CCGAACGG,-0.333
CATTAGCC,-0.127
CCGTTCAC,-0.186
ACTTGCGG,-0.179
CACCCCAC,-0.0921
AATGAGAA,0.0358

# Sample 5 — technique: protein-binding microarray; molecule type: hairpin DNA; medium: in vitro; concentration: not given; relative to: not given; reading: higher = stronger binding
# Target: Interferon regulatory factor 1, DNA-binding domain (IRF1, Homo sapiens, UniProt P10914, residues 1-114)
# Setting: whole hairpin DNA, median over replicate spots
# Residues (chain): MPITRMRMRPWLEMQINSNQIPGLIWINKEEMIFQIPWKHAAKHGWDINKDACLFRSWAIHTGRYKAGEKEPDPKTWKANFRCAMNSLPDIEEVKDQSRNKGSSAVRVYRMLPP
Sequence,median fluorescence [a.u.]
GAGGCCCGAACGTGAAACGCCTCCTGGCGTTTCACGTTCGGGCCTCACAC,526
GAGGCCCGAAAGCGATACGCCTCCTGGCGTATCGCTTTCGGGCCTCACAC,530
GAGGCCCCGAAGTGAAACGCCTCCTGGCGTTTCACTTCGGGGCCTCACAC (5mC at 8 38),594
GAGGCCCGAAAGGGAAACGCCTCCTGGCGTTTCCCTTTCGGGCCTCACAC,576
GAGGCCCGAAAGTGACGCGCCTCCTGGCGCGTCACTTTCGGGCCTCACAC,539
GAGGCCCGAAACGGAAACGCCTCCTGGCGTTTCCGTTTCGGGCCTCACAC (5mC at 12),552
GAGGCCCGAAAGCGAAAAGCCTCCTGGCTTTTCGCTTTCGGGCCTCACAC,830
GAGGCCCGAAAGTGAAATGCCTCCTGGCATTTCACTTTCGGGCCTCACAC,706
GAGGCCCGAAAGCCGAACGCCTCCTGGCGTTCGGCTTTCGGGCCTCACAC,526
GAGGCCCGAAAGCGAAACGCCTCCTGGCGTTTCGCTTTCGGGCCTCACAC (5mC at 13),1070
GAGGCCCGAAAGTCGAACGCCTCCTGGCGTTCGACTTTCGGGCCTCACAC (5mC at 14 32),519
GAGGCCCCGAAGCGAAACGCCTCCTGGCGTTTCGCTTCGGGGCCTCACAC (5mC at 8),578
GAGGCCCGAAAGTGAACGGCCTCCTGGCCGTTCACTTTCGGGCCTCACAC (5mC at 17 29),530
GAGGCCCGAAAGCGAAGCGCCTCCTGGCGCTTCGCTTTCGGGCCTCACAC (5mC at 30),562
GAGGCCCGAAAGTGAGACGCCTCCTGGCGTCTCACTTTCGGGCCTCACAC (5mC at 31),580

# Sample 6 — technique: DHFR PCA, deep sequencing; medium: yeast; together with: (+)-ABA 2500 µM; relative to: wild-type fitted maximum; reading: higher = stronger binding
# Target: ABI1, truncated, D143A, DHFR fusion (Arabidopsis thaliana)
# Setting: methotrexate growth selection, single substitutions
# Parent: PYL1, truncated, DHFR fusion (Arabidopsis thaliana); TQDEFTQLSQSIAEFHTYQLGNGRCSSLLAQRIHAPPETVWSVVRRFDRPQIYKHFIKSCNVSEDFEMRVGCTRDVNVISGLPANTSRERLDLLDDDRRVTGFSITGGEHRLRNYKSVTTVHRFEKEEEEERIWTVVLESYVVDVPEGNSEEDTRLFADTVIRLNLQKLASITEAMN
Change,relative binding score [%]
V44P,-17.5
E14N,86.7
F5Y,88.8
N22Y,94.8
A170L,86.3
I33L,80.2
S42D,110
T135K,9.26
E125T,97.5
S11V,105
D144L,82.2
Q19A,101
S27V,52.2

# Sample 7 — technique: protein-binding microarray; molecule type: double-stranded DNA, one strand shown; medium: in vitro; concentration: 250 nM; setting: 60-bp whole probe; together with: salmon DNA 0.4 mg/ml; relative to: random background probes; reading: higher = stronger binding; all sequences stand within: GCCTAGCAC … GTCTTGATTCGCTTGACGCTGCTG
# Target: Interferon regulatory factor 7, full length, phosphomimetic (IRF7, Homo sapiens, UniProt Q92985, residues 1-503, S101K/S471D/S472D/S475D/S476D/S477D/S483D/S484D/S487D)
# Residues (chain): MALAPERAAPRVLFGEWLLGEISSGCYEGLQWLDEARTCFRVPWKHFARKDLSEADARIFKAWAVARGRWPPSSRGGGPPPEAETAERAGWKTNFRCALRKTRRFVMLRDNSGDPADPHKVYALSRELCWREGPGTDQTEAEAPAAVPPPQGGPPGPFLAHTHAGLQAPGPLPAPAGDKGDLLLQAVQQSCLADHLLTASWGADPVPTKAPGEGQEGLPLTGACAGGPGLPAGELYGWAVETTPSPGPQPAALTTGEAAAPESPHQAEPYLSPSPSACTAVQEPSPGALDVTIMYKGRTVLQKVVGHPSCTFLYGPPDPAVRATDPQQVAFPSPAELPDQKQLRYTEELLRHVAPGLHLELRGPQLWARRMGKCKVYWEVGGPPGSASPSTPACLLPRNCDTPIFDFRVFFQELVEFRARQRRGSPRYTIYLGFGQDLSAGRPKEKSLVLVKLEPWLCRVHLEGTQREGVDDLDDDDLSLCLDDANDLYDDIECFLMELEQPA
Sequence,log fluorescence
TTAGATTTCAGTTTCGATCAGTGCTAG,4.96 z-score
GAAGATTTCAGTATCGAGACGTGCTAG,0.31 z-score
GAGGGACTGGGGTATCGGGACGTGCTA,-0.306 z-score
GACGATTTCAGCTCCGAGACGTGCTAG,-0.0856 z-score
CAAGTGATGTAGCTGGGAGCGTGCTAG,-0.939 z-score
TCAGTTGTCCAGGCTGGTACTGTGCTA,0.335 z-score
GACGGTTTCGACGATCGGGACGTGCTA,1.58 z-score
CCATCTCTGCTCCTTCTGACAGTGCTA,0.18 z-score
GAAGGTATCCTTCTCCTGACGTGCTAG,0.352 z-score
CCCAATTGTCTTTTCACTTTGTGCTAG,1.08 z-score
GGATATATATCATTTAATTAGTGCTAG,-0.161 z-score
GACGGTACCGACACTGGGGACGTGCTA,-0.507 z-score
TTAGGTCTCGTTTTCGGTTAGTGCTAG,8.17 z-score
GACGGACTGCTTTTCCGGACGTGCTAG,0.0858 z-score
GACGGACTGGGGGCTGGGGACGTGCTA,0.81 z-score
TTAGGTTTCGACCTTCGGTTAGTGCTA,5.91 z-score
GACGGTTTCGGCTATCGGGACGTGCTA,3.65 z-score
TTTCCTTCCTCTTTTACCCCGTGCTAG,3.33 z-score

# Excerpt of the above (sample 7):
Sequence,log fluorescence
GGATATATATCATTTAATTAGTGCTAG,-0.161 z-score
GAAGATTTCAGTATCGAGACGTGCTAG,0.31 z-score
TCAGTTGTCCAGGCTGGTACTGTGCTA,0.335 z-score
CAAGTGATGTAGCTGGGAGCGTGCTAG,-0.939 z-score
GAGGGACTGGGGTATCGGGACGTGCTA,-0.306 z-score
GACGGTACCGACACTGGGGACGTGCTA,-0.507 z-score
GACGGACTGGGGGCTGGGGACGTGCTA,0.81 z-score
TTTCCTTCCTCTTTTACCCCGTGCTAG,3.33 z-score
GACGATTTCAGCTCCGAGACGTGCTAG,-0.0856 z-score
GACGGTTTCGACGATCGGGACGTGCTA,1.58 z-score
GAAGGTATCCTTCTCCTGACGTGCTAG,0.352 z-score
CCATCTCTGCTCCTTCTGACAGTGCTA,0.18 z-score
GACGGACTGCTTTTCCGGACGTGCTAG,0.0858 z-score
TTAGGTTTCGACCTTCGGTTAGTGCTA,5.91 z-score
TTAGGTCTCGTTTTCGGTTAGTGCTAG,8.17 z-score
GACGGTTTCGGCTATCGGGACGTGCTA,3.65 z-score
TTAGATTTCAGTTTCGATCAGTGCTAG,4.96 z-score
CCCAATTGTCTTTTCACTTTGTGCTAG,1.08 z-score
